Results from different studies.
Each line is one published result; not all experiments were run side by side. Several values in a cell are separate wells, animals, samples, runs or records. ± gives the spread as reported.
Uncharacterized hydrolase SAUSA300_2518: Uncharacterized hydrolase SAUSA300_2518 (Staphylococcus aureus, UniProt Q2FDS6)
Oprm1: Mu-type opioid receptor (Oprm1, Rattus norvegicus, UniProt P33535)
Sequence of UniProt P33535 (whole entry, looked up): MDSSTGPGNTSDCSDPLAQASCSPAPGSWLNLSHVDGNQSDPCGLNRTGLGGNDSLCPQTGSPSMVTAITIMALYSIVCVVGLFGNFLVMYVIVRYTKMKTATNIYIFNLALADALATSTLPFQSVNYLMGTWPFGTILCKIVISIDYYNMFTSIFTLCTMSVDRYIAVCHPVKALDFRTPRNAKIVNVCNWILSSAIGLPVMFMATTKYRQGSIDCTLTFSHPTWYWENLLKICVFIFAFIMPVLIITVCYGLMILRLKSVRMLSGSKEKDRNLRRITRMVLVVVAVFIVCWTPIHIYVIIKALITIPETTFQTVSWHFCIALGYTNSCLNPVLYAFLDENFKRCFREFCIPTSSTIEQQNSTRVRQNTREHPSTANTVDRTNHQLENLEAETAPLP
lasR: Transcriptional activator protein LasR (lasR, Pseudomonas aeruginosa, UniProt P25084)
sdiA: Regulatory protein SdiA (sdiA, Escherichia coli, UniProt P07026)
Sequence of UniProt P07026 (whole entry, looked up): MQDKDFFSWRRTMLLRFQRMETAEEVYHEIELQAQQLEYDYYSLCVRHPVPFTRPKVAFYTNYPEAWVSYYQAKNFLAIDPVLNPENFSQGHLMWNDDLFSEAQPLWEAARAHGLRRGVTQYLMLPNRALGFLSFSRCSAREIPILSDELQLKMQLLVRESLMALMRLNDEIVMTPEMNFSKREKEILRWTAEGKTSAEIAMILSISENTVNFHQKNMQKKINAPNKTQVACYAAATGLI
KEAP1: Kelch-like ECH-associated protein 1 (KEAP1, Homo sapiens, UniProt Q14145)
Sequence of UniProt Q007T0 (whole entry, looked up): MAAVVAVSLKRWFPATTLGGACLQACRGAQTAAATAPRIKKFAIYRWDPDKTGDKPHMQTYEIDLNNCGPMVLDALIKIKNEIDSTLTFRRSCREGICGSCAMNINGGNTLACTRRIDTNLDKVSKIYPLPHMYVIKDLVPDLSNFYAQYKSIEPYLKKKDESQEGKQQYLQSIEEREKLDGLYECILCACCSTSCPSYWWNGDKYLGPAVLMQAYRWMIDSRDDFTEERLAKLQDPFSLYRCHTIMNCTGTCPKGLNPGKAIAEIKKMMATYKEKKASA
Sequence of UniProt Q14145 (whole entry, looked up): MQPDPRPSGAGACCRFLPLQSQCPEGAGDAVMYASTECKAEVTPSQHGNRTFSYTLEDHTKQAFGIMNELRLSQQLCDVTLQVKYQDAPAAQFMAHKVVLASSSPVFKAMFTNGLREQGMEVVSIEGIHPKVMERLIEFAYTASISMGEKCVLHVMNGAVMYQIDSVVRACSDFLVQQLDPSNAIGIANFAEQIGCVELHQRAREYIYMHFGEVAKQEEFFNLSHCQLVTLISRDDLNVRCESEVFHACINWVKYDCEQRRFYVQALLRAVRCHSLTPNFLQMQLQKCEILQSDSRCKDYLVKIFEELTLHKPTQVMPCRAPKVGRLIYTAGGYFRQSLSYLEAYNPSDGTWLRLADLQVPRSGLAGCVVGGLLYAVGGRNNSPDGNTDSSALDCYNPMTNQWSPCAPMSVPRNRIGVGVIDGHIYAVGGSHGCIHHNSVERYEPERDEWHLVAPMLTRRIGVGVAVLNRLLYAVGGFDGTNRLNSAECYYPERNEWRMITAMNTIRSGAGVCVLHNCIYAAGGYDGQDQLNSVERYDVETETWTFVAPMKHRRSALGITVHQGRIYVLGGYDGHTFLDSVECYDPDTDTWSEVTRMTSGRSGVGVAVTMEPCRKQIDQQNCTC
Sequence of UniProt A5GZW8 (whole entry, looked up): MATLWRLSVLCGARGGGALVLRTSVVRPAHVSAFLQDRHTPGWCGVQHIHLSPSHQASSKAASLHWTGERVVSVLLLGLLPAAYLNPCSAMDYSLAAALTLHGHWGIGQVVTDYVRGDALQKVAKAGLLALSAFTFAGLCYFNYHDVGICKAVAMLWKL
Sequence of UniProt D0VWV4 (whole entry, looked up): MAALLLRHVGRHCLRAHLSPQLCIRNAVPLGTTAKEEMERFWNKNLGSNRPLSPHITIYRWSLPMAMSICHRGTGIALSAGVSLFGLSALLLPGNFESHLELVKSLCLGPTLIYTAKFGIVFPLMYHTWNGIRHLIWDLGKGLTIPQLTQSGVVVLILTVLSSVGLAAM
Sequence of UniProt Q9Y2J8 (whole entry, looked up): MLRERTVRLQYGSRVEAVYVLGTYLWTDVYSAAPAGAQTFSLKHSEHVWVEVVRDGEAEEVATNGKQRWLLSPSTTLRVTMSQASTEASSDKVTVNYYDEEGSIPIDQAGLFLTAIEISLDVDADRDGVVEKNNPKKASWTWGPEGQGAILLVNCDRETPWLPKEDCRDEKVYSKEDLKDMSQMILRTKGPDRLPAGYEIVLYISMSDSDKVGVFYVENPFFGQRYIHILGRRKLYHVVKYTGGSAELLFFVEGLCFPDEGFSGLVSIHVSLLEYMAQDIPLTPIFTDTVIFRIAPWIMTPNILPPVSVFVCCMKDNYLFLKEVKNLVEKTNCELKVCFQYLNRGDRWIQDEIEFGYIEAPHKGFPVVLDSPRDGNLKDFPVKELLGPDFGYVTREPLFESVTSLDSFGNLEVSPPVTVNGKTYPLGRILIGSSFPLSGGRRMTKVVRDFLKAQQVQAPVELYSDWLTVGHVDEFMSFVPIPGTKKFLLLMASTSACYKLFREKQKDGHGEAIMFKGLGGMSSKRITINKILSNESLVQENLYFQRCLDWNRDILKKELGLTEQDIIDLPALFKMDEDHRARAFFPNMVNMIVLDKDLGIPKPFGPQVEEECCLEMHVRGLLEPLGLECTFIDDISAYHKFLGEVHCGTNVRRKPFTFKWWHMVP
Sequence of UniProt Q6XUX3 (whole entry, looked up): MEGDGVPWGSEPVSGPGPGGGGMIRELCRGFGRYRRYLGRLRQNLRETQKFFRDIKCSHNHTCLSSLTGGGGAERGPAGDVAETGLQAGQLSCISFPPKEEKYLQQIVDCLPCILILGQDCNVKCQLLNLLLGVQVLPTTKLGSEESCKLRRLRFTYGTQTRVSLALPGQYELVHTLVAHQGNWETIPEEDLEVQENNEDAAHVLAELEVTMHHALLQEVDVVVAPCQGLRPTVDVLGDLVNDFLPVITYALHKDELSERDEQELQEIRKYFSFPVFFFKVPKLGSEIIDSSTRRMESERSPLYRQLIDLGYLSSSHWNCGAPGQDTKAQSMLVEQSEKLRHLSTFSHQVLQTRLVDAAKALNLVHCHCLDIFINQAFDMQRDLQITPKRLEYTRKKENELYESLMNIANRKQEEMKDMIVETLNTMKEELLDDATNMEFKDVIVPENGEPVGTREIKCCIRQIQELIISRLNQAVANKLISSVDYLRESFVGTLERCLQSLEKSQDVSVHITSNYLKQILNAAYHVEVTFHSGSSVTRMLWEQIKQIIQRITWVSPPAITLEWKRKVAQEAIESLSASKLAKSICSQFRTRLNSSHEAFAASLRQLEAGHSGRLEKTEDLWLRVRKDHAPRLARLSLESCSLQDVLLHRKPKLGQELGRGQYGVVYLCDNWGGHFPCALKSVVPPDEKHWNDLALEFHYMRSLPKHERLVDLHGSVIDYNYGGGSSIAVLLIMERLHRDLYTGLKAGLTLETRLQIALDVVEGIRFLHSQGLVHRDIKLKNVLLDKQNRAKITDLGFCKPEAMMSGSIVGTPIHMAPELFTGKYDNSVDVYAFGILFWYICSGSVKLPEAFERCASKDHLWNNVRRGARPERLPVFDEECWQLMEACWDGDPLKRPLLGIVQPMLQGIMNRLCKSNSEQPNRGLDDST
Sequence of UniProt P0A988 (whole entry, unmodified, looked up): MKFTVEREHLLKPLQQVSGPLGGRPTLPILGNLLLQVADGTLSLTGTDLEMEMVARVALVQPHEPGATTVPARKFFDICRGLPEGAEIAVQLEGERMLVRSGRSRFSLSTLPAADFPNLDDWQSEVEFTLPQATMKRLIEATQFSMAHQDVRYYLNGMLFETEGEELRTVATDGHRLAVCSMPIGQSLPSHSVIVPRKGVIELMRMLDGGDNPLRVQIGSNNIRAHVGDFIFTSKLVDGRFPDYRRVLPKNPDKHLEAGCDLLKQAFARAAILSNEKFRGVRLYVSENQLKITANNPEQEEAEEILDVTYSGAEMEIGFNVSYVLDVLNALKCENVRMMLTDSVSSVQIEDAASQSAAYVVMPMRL
Sequence of UniProt Q13164 (whole entry, looked up): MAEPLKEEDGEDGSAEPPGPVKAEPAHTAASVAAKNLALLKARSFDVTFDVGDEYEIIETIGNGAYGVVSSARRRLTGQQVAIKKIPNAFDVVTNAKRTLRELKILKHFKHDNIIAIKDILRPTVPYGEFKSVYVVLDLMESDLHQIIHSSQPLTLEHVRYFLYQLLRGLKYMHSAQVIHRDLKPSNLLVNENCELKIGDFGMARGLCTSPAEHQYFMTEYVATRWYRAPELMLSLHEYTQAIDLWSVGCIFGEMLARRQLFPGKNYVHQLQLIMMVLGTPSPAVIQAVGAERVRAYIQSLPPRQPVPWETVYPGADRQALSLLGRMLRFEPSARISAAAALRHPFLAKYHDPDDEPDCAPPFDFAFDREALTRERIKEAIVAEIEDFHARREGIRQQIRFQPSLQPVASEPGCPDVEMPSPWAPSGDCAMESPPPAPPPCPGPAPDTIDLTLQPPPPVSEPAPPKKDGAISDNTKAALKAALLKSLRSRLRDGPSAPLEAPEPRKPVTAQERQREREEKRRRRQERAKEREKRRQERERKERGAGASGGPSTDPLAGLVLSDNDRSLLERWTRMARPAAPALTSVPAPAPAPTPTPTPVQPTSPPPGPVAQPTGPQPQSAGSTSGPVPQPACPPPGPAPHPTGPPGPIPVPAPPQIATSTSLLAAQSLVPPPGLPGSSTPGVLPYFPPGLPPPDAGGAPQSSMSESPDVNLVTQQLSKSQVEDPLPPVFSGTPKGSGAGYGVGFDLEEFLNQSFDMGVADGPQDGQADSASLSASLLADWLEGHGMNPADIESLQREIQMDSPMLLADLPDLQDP
Sequence of UniProt Q8TDX7 (whole entry, looked up): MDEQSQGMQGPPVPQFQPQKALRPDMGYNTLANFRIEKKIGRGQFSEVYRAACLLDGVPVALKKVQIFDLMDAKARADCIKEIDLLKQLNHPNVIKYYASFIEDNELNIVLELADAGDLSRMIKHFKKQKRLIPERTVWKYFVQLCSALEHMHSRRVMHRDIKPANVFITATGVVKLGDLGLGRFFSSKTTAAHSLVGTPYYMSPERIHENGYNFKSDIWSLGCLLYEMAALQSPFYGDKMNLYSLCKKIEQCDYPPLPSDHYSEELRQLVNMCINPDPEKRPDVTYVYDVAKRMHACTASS

The remaining activity of `O=C1NC(=O)c2c1c1cc(F)c[n+]3c1c1c2c2cc(O)ccc2[n]1[Ru-4]312([N]=C=S)[S+]3CC[S+]1CC[S+]2CC3` (centres unmarked) is reported as 8% (PDGFRA (Homo sapiens, UniProt P16234, V561D); enzyme activity; 100 nM, human enzyme, added: 10 µM ATP; baseline: untreated).
`CS(C)(=O)=Nc1ccc(-c2ccc(-c3nc4cc(O[C@@H]5CO[C@H]6[C@@H]5OC[C@H]6O)[nH]c4cc3F)cc2)cc1` has an inhibition of -33% (FLT3 (Homo sapiens, UniProt P36888, D835Y); enzyme activity, inhibitor; 10 µM).
For `CCc1nnc(-c2c(OC)cc(-c3cnc4cc(-c5cnn(C)c5)ccn34)cc2OC)o1`, the remaining binding was 145% (PTGS1 (Homo sapiens, UniProt P23219); radioligand binding; 10 µM, SafetyScreen44 replicate 2; lower = stronger displacement).
For `Nc1ccc(N=Nc2ccccc2)c2ccccc12`, the ΔTm was 14.6 °C (Tumor susceptibility gene 101 protein (Homo sapiens, UniProt Q99816); thermal stability; 800 µM).
For `Cc1ccc(OS(=O)(=O)F)c(C(=O)Nc2ccncc2)c1`, the remaining activity was 83.6% and 85% and 80.7% (Uncharacterized hydrolase SAUSA300_2518; enzyme activity, inhibitor, fluorogenic substrate; 0.5 µM).
`CC(C)[C@H]1NC(=O)C[C@H]2/C=C/CCSSC[C@@H](NC1=O)C(=O)N[C@H](Cc1cccc3ccccc13)C(=O)NCC(=O)O2` gave an inhibition of 0.256% (NEK7 (Homo sapiens, UniProt Q8TDX7); enzyme activity, inhibitor; 10 µM).
For `CON(C(=O)c1cn(C)nc1C(F)F)C(C)Cc1c(Cl)cc(Cl)cc1Cl` (centres unmarked), the reaction velocity was 0.00309 µM/s and 0.00344 µM/s and 0.00287 µM/s (SDHD/SDHC/SDHB (Sus scrofa, UniProt A5GZW8+D0VWV4+Q007T0); enzyme activity, inhibitor, DCIP reduction; pig; 0.6 µM, added: DCIP 20 µM).
`C[C@@H](O)[C@@H]1CN([C@@H](CC2CCCCC2)CN2CCC[C@H]2CN2CCNC[C@@H]2CO)CCN1CCC12CC3CC(CC(C3)C1)C2` has a remaining binding of 107 ± 10.6% (Oprm1; radioligand binding; rat brain membranes; 500 nM, pH 7.5, 25 °C, added: 0.87 nM [3H]DAMGO).
With `Cc1cc(O)cc(C)c1C[C@H](N)C(=O)N[C@H](CCCNC(=N)N)C(=O)N[C@@H](Cc1ccccc1)C(=O)N[C@@H](CCCCN)C(=O)NCCNC(=O)[C@@H]1Cc2ccccc2CN1C(=O)[C@@H](N)Cc1c(C)cc(O)cc1C` the selectivity ratio was 2.55 (Oprm1; binding; rat brain membranes; added: [3H]DAMGO; baseline: Ki mu over Ki delta).
The ΔH of `C=CC(=O)NC[C@H](NC(=O)[C@H](CC1CCCCC1)NC(=O)[C@H](CCC(N)=O)NC(C)=O)C(=O)N[C@@H](CC(C)C)C(=O)N[C@@H](Cc1ccccc1)C(=O)O` is reported as -13.9 kcal/mol (Beta sliding clamp (Escherichia coli, UniProt P0A988); binding, isothermal titration calorimetry; 37 °C).
With `CC(C)CC(O)(CC(C)C)c1cn(C(=O)N2CCCC2)nn1` the SILAC ratio was 1.32 (Acyl-protein thioesterase 2 (Mus musculus, UniProt Q9WTL7); probe labelling, inhibitor, competitive ABPP-SILAC, refers to: Lypla2; mouse T cells; concentration not given, 4 h, in situ, protein level; baseline: treated over DMSO, lower = more inhibition).
`CCn1nc(Cl)c2c1-c1cnc(N)c(c1)O[C@H](C)c1cc(F)ccc1-c1nn(C)cc1C2` has a selectivity ratio of 88 fold (DSTYK (Homo sapiens, UniProt Q6XUX3); kinase activity, inhibitor; baseline: IC50 DSTYK over IC50 ALK).
`CN(C)CCCSC(=S)N1CCN(C(=O)/C=C/c2coc3ccccc3c2=O)CC1` has an MST response of 842 a.u. (Nucleoprotein (N, Tomato spotted wilt virus, UniProt P25999, R94A); binding, microscale thermophoresis; 0.0153 µM; dose series).
`CCOC(=O)[C@@H]1Cc2c(cc([N+](=O)[O-])cc2[N+](=O)[O-])[C@H](O)[C@]12C(=O)Nc1ccc(Br)cc12` has a remaining binding of 71% (SRPK3 (Homo sapiens, UniProt Q9UPE1); binding, competition with immobilised ligand; 0.1 µM).
With `COc1ccccc1-c1n[nH]c2nc(N[C@H]3CC[C@H](NS(=O)(=O)CC(C)C)CC3)ncc12` the Hill coefficient was 1.18 and 1 (cdc2-related kinase 12 (Leishmania donovani, UniProt A0A3S7WQK2); binding, kinobead competition; Leishmania donovani extract).
`O=S(=O)(F)c1cccc2c1OCC2` has a remaining activity of 120% and 115% (Uncharacterized hydrolase SAUSA300_2518; enzyme activity, inhibitor, fluorogenic substrate; 5 µM).
The inhibition of `CN(C)[C@H]1C[C@@]23CC[C@@]4(O2)C(=CC[C@]2(C)[C@@H](c5ccc6ccncc6c5)CC[C@H]24)C=C3[C@@H](O)[C@@H]1O` is reported as 4.2% (MAPK7 (Homo sapiens, UniProt Q13164); ATP probe labelling, inhibitor, KiNativ profiling; 0.1 µM).
`OB(O)c1cnn(-c2cccc(Cl)c2)c1` has a selectivity ratio of 83300 (CELA1 (Sus scrofa, UniProt P00772); pNA substrate hydrolysis; baseline: Ki protease over Ki AmpC).
For `COc1cc2c(cc1S(=O)(=O)F)C(=O)NCCC2`, the remaining activity was 90.9% and 89.8% and 92.6% (Uncharacterized hydrolase SAUSA300_2518; enzyme activity, inhibitor, fluorogenic substrate; 5 µM).
The potency ratio of `O=C(NCc1cc(Br)cc(Br)c1OC(=O)c1ccccc1[N+](=O)[O-])c1ccccc1Cl` is reported as 9.1 (lasR; reporter gene, agonist; baseline: EC50 PAO-JP2 over E. coli JLD271).
With `C#CCCCCOc1ccc2c(c1)CCCN2C(=O)CCl` the reactivity ratio was 0.597 (NCEH1 (Homo sapiens, UniProt Q6PIU2); mass spectrometry profiling; H460 cell lysate; 100 µM over 10 µM, UniProt Q6PIU2; baseline: high over low concentration).
`CSCC[C@@H]1NC(=O)[C@H](Cc2ccccc2)NC(=O)[C@H](CS)NC(=O)[C@H](C(C)C)NC(=O)[C@H](Cc2ccccc2)NC1=O` has an EC50 ratio of > 60 fold (Histidine kinase AgrC (Listeria monocytogenes, UniProt A8E0G3); reporter gene, agonist, agr GFP reporter; baseline: native 6-mer AIP).
The remaining binding of `CCCC[C@H]1CNCCN1C[C@@H]1CCCN1C[C@@H](Cc1ccc2ccccc2c1)N1CCN(CCc2ccc(Cl)c(Cl)c2)[C@H]([C@@H](C)O)C1` is reported as 104 ± 8.28% (Oprm1; radioligand binding; rat brain membranes; 500 nM, pH 7.5, 25 °C, added: 0.87 nM [3H]DAMGO).
For `O=C(CCCOc1ccc(Cl)cc1)N[C@H]1CCOC1=O`, the potency ratio was 43 (lasR; reporter gene, antagonist; baseline: IC50 PAO-JP2 over E. coli JLD271).
The melting temperature of `N[C@H](C(=O)N1CCCC1)C1CCN(c2nccc3c(-c4ncc(Cl)cc4Cl)cccc23)CC1` is reported as 60.2 °C and 59.3 °C (PADI2 (Homo sapiens, UniProt Q9Y2J8); thermal shift; 0.09521 µM).
`CCCC[C@H]1CNCCN1C[C@@H]1CCCN1C[C@H](CC1CCCCC1)N1CCN(CCCC2CCCC2)[C@H]([C@H](C)CC)C1` has a remaining binding of 97.8 ± 7.32% (Oprm1; radioligand binding; rat brain membranes; 500 nM, pH 7.5, 25 °C, added: 0.87 nM [3H]DAMGO).
The Emax of `O=C(COc1ccc(I)cc1)N[C@H]1CCSC1=O` is reported as 92% (sdiA).
For `CC(C)[C@@H]1NC(=O)[C@H](CC(N)=O)NC(=O)CNC(=O)[C@H](CC(N)=O)NC(=O)[C@H](C)NC(=O)[C@H](CC(=O)O)NC(=O)[C@H]([C@@H](C)O)NC(=O)[C@H](CCC(=O)O)NC(=O)CNC(=O)[C@H]([C@@H](C)O)NC(=O)[C@H](CCC(=O)O)NC(=O)[C@H](CCC(=O)O)NC(=O)[C@H](CC(=O)O)NC1=O`, the fluorescence polarization was 0.842 a.u. and 0.723 a.u. (KEAP1; Keap1-Nrf2 binding, inhibitor, competitive FP; 0.0977 µM, 30 min, added: Nrf2 peptide probe; lower = stronger inhibition).
With `CCCCCCCCCC(=O)CC(=O)Nc1ccccc1O` the agonist activity was 86% (lasR; reporter gene, agonist; Escherichia coli JLD271; 10 µM, pSC11 and pJN105L plasmids; baseline: OdDHL at same concentration).
`CC(C)[C@@H]1NC(=O)[C@H](CCC(=O)O)NC(=O)CNC(=O)[C@H]([C@@H](C)O)NC(=O)[C@H](CCC(=O)O)NC(=O)[C@H](CCC(=O)O)NC(=O)[C@H](CC(=O)O)NC(=O)[C@H](C(C)C)NC(=O)[C@H]([C@@H](C)O)NC(=O)CNC(=O)[C@H](CC(=O)O)NC(=O)[C@H](CC(N)=O)NC(=O)[C@H](Cc2ccc(O)cc2)NC1=O` has a fluorescence polarization of 1.22 a.u. and 1.03 a.u. (KEAP1; Keap1-Nrf2 binding, inhibitor, competitive FP; 0.0061 µM, 30 min, added: Nrf2 peptide probe; lower = stronger inhibition).
With `O=C(CCCOc1cccc(Br)c1)N[C@H]1CCSC1=O` the agonist activity was 88% (lasR; reporter gene, agonist; Escherichia coli JLD271; 10 µM, pSC11 and pJN105L plasmids; baseline: OdDHL at same concentration).
With `CCCCCCCCCC(=O)NC1CCSC1=O` (centres unmarked) the Emax was 113% (sdiA).

For quick reference, copied from above:
The ΔH of `C=CC(=O)NC[C@H](NC(=O)[C@H](CC1CCCCC1)NC(=O)[C@H](CCC(N)=O)NC(C)=O)C(=O)N[C@@H](CC(C)C)C(=O)N[C@@H](Cc1ccccc1)C(=O)O` is reported as -13.9 kcal/mol (Beta sliding clamp (Escherichia coli, UniProt P0A988); binding, isothermal titration calorimetry; 37 °C).
`CS(C)(=O)=Nc1ccc(-c2ccc(-c3nc4cc(O[C@@H]5CO[C@H]6[C@@H]5OC[C@H]6O)[nH]c4cc3F)cc2)cc1` has an inhibition of -33% (FLT3 (Homo sapiens, UniProt P36888, D835Y); enzyme activity, inhibitor; 10 µM).
